Results gathered from unrelated publications.
Each numbered part is a random draw from the data of one study; scales do not carry over between parts.

Block 1
Target: Replicase polyprotein 1ab, polymerase (rep, Severe acute respiratory syndrome coronavirus 2, UniProt P0DTD1)
Read-out: enzyme activity
Mode: inhibitor
Tested at: 20 µM
SMILES | inhibition
CN1C(=O)CC[C@H]1c1cccnc1 | -2.24%
CC1=C(/C=C/C(C)=C/C=C/C(C)=C/C=C/C=C(C)/C=C/C=C(C)/C=C/C2=C(C)C(=O)[C@@H](O)CC2(C)C)C(C)(C)C[C@H](O)C1=O | 5.39%
COC(=O)N[C@@H](C)CNc1nccc(-c2cn(C(C)C)nc2-c2cc(Cl)cc(NS(C)(=O)=O)c2F)n1 | -1.32%
O=C(NOCCO)c1ccc2cncn2c1Nc1ccc(I)cc1F | 5.05%
Cc1ccc(C(=O)N(CCCN)[C@@H](c2oc3cc(Cl)ccc3c(=O)c2Cc2ccccc2)C(C)C)cc1 | 7.52%
CC(C)(C(=O)O)c1ccc(C(=O)CCCN2CCC(OC(c3ccccc3)c3ccccc3)CC2)cc1 | 0.15%
COc1cccc(Nc2ncnn3ccc(CN4CC[C@@H](N)[C@H](O)C4)c23)c1 | -0.18%
NS(=O)(=O)c1cc2c(cc1Cl)NC(C1CC3C=CC1C3)NS2(=O)=O (centres unmarked) | -6.21%
CC(C)CC(=O)Nc1n[nH]c2c1CN(C(=O)C1CCN(C)CC1)C2(C)C | 0.85%
CC1(C)S[C@@H]2[C@H](NC(=O)COc3ccccc3)C(=O)N2[C@H]1C(=O)O | 29.7%
NCCS | 0.7%
CCCCN1CCCCC1C(=O)Nc1c(C)cccc1C (centres unmarked) | 1.44%
CCc1cccc(N(C)C(N)=Nc2cccc3ccccc23)c1 | 1.27%
O=S(=O)(NC1CCNCC1)c1cc(S(=O)(=O)c2ccccc2)ccc1C(F)(F)F | -3.78%
COc1ccccc1N1CCN(CCN(C(=O)C2CCCCC2)c2ccccn2)CC1 | -3.89%
CCn1c(-c2nonc2N)nc2cncc(CNC3CCNCC3)c21 | -8%
Cc1cc(F)c(Nc2ncnc3cc(OCc4ccccc4)ccc23)cc1O | -2.66%
CC(C)(Cc1c[nH]c2ccc(Cl)cc12)NCCOc1ccccc1OCC1CC1 | 1.1%
CN(C)CC[C@@]1(c2ccc(Cl)cc2)Cc2ccccc2C(=O)O1 (racemic) | 1.73%
O=C(COc1ccc(Cl)cc1)N1CCN(Cc2ccc3c(c2)OCO3)CC1 | 0.42%
O=C(Nc1nc(-c2cc(Cl)cs2)c(N2CCN(C3CCCCC3)CC2)s1)c1cnc(N2CCC(C(=O)O)CC2)c(Cl)c1 | 1.2%
CC(=O)OC[C@H]1O[C@@H](n2ccc(=O)[nH]c2=O)[C@H](OC(C)=O)[C@@H]1OC(C)=O | 2.86%
COc1ccc2c(C)nc(Nc3nc(C)c(C)c(=O)[nH]3)nc2c1 | -2.78%

Block 2
Target: Interferon regulatory factor 3, full length, phosphomimetic (IRF3, Homo sapiens, UniProt Q14653, residues 1-427, S386D/S396D/S398D/S402D/T404D/S405D)
Technique: protein-binding microarray
Molecule type: double-stranded DNA, one strand shown
Sample: in vitro
Tested at: 2540 nM top
Notes: 60-bp whole probe
Together with: salmon DNA 0.4 mg/ml
Relative to: random background probes
Reading: higher = stronger binding
Shared flanks, not repeated: GCCTAGCAC … GTCTTGATTCGCTTGACGCTGCTG
Construct (chain): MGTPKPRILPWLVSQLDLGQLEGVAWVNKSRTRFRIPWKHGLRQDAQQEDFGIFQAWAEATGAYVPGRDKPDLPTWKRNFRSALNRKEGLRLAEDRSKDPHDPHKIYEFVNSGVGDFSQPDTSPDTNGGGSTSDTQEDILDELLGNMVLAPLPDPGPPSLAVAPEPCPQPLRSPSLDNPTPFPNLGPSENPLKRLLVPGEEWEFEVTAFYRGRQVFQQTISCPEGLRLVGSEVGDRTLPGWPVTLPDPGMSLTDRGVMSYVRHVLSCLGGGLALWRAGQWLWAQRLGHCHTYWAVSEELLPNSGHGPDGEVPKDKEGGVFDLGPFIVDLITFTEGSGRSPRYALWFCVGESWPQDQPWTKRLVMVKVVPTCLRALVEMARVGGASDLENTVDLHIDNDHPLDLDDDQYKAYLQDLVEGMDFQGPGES
Strand | fitted relative affinity [z-score]
TCAGCTTTCCTGATGGTACTGTGCTAG | 1.67
TGCACTCTCTACATGTGTTTGTGCTAG | 0.185
GACGGTTTCGACTATCGGGACGTGCTA | 3.04
TCATGTCTGGGCATTTTTACTGTGCTA | -0.419
GACGGGTTCCTACTGCTGACGTGCTAG | 0.748
CTCTGGTTCTTGCTTGGTGTCGTGCTA | -0.462
GACGATTTGAGTTCCGAGACGTGCTAG | 0.435
GACGGAATCGGTCTCGGGACGTGCTAG | 1.12

Block 3
Target: Replicase polyprotein 1ab, 3C-like proteinase (rep, Middle East respiratory syndrome-related coronavirus, UniProt K9N7C7)
Read-out: enzyme activity
Mode: inhibitor
Tested at: 10 µM
SMILES | inhibition
Cc1ccc(S(=O)(=O)/C=C/C#N)cc1 | 17%
CCCCCCCCCCCCCCCC[n+]1ccn(Cc2ccccc2)c1C | 12%
[O-][S+](c1ccccc1)c1ccc2nnnn2n1 (centres unmarked) | 49.5%
CC[C@H](CO)Nc1nc(NCc2ccc(-c3ccccn3)cc2)c2ncn(C(C)C)c2n1 | 4%
C/N=c1/nc(-c2ccccc2)n(-c2ccccc2)s1 | 44%

Block 4
Target: Sal-like protein 4, full length isoform A (SALL4, Homo sapiens, UniProt Q9UJQ4, residues 1-1053)
UniProt Q9UJQ4, sequence (whole entry, looked up): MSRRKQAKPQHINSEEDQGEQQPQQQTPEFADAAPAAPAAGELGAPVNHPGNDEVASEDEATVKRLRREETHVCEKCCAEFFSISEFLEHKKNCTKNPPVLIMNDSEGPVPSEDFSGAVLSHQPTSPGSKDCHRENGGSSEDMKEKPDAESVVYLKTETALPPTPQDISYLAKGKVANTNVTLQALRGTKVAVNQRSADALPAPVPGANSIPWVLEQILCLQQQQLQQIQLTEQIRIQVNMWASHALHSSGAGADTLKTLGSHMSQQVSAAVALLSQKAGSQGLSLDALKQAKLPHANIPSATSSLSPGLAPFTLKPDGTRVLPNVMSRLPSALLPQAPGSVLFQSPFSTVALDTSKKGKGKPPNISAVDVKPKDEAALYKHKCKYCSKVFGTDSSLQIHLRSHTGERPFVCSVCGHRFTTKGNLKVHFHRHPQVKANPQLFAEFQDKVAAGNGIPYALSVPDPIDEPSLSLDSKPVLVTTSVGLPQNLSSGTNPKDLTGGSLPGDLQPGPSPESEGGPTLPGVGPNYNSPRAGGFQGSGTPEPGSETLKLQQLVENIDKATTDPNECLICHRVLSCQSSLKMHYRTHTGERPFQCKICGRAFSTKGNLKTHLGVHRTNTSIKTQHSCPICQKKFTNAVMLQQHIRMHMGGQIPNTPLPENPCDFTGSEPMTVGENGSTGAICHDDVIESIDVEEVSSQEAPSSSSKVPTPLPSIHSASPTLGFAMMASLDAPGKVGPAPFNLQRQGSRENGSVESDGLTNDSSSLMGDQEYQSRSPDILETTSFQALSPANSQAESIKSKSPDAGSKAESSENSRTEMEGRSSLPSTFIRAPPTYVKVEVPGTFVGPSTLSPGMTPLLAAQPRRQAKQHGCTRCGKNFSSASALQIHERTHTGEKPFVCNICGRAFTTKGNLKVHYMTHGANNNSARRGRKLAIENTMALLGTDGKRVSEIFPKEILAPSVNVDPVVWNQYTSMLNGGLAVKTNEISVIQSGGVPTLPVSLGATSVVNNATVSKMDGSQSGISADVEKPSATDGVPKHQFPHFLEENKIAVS
Technique: universal PBM
Molecule type: double-stranded DNA, one strand shown
Sample: in vitro
Tested at: 600 nM
Notes: 8-mer, flanks averaged, mean of replicates
Reading: higher = stronger binding
Strand | E-score
ACTCCATC | 0.00419
CGACGAAA | 0.0763
TTCCGCAA | 0.0492
TGATTACA | 0.299
AGATGACT | 0.0295
AGGGTCCG | -0.383
CCTAATCC | -0.0874
ACGCATTA | 0.192

Block 5
Cell line: HEK-293T/ACE2
Tested at: 10 µM
Time: 16 h
Relative to: vehicle
SMILES | viability [%]
O=C(OOC(=O)c1ccccc1)c1ccccc1 | 100
Cc1ccc(Sc2ccccc2N2CCNCC2)c(C)c1 | 101
Nc1ccc(/N=N/c2ccccc2)c(N)n1 | 105
NC(=O)N[C@@H](CCC(=O)O)C(=O)O | 98.8
CO/N=C(\C(=O)N[C@@H]1C(=O)N2C(C(=O)O)=C(COC(C)=O)CS[C@H]12)c1csc(N)n1 | 99.3
CCn1cc(C(=O)O)c(=O)c2cc(F)c(N3CCNC(C)C3)c(F)c21 (centres unmarked) | 103

Repeated from above (block 3):
SMILES | inhibition
CC[C@H](CO)Nc1nc(NCc2ccc(-c3ccccn3)cc2)c2ncn(C(C)C)c2n1 | 4%
C/N=c1/nc(-c2ccccc2)n(-c2ccccc2)s1 | 44%
CCCCCCCCCCCCCCCC[n+]1ccn(Cc2ccccc2)c1C | 12%
[O-][S+](c1ccccc1)c1ccc2nnnn2n1 (centres unmarked) | 49.5%
Cc1ccc(S(=O)(=O)/C=C/C#N)cc1 | 17%
